# Experimental data pooled from the literature.
# Protocols differ between the studies behind these lines. Values joined by “and” are separate records of one study, mostly repeats; a detail may differ. ± gives the spread as reported.
Substance,target or system,assay,system,setting,scale,endpoint,result
TVFYNIPPMPL,PBMCs from EBV-positive healthy donor,HLA-DRB1*07:01 tetramer,peptide,"concentration not given, uninduced",relative to: CD4 T cells,tetramer-positive CD4 T cells,0.06%
KLPQLCTEV,ASPC1 (HLA-A2− HPV−),111In release,peptide,"concentration not given, 16 h, E:T 25:1, IVS 5, added: peptide-generated T-cell line",,specific lysis,-0.2% and 0.2%
LPLKMLNIPSINVH,stimulated healthy donor PBMCs,"multimer staining, measured: DRB1*01:01 tetramer",peptide,"concentration not given, undiluted",relative to: CD4 T cells,antigen-specific CD4 T cells,0.53%
PSLLSSEDNADDEVDTRPASFWETS,Hepa1-6,,peptide,"concentration not given, 18 h, serum-free, added: Jo2",,Jo2-induced cell death,decreased
KLPQLCTEL,HPV16 E6-specific T-cell line,ELISA,"peptide, supernatant","concentration not given, 24 h, added: peptide-pulsed autologous B cells",,IFN-γ release,264 pg/mL
DFIPPYVDFPPRLPIFR,DLD-1,"immunoblot, measured: beta-catenin","peptide, cytosolic fraction",,relative to: non-transfected cells,degradation,> 50%
LHKLLHHLLHHLHKLLHHLHHLLHKLC,human red blood cells,hemolysis,peptide,"1 h, pH 7.4",relative to: Triton X-100,EC50,> 100 µM
KISEYRHYC,HN-30 (HLA-A2− HPV+),111In release,peptide,"concentration not given, 16 h, E:T 25:1 IVS 5, added: peptide-generated T-cell line",,specific lysis,3.3%
LWWGMAKYCAAKLTCMC,HS-SY-II,"degrader, transient transfection, measured: SS18-SSX1",peptide,"concentration not given, 3 days",,protein level reduction,> 40%
CEMDGQCKRDLKCCMGMCGKSCVSPVKA,RAW264.7,Western blot,peptide,"concentration not given, 6 h pretreatment, added: LPS 30 min",,p-p38/p38 ratio,0.31 ± 0.06
insulin human,,measured: CPS1 mRNA,"EcoHIV-infected mouse, brain","i.p., dose not given",relative to: PBS,fold change,0.635
RTLEDLLMGT,HN12 (HLA-A2+ HPV+),111In release,peptide,"concentration not given, 16 h, E:T 25:1 IVS 5, added: peptide-generated T-cell line",,specific lysis,34.6%
lead,U87 glioblastoma,CCK-8,,"2.5 µM, 24 h, unit not given",relative to: untreated control,viability,0.54
Apelin,HUVEC expressing APJ,Transwell,,200 ng/mL,relative to: control,cell migration,1.5 fold
DAMGO,naive rat DRG neurons,"PKA-RII phosphorylation, high-content microscopy",,added: forskolin 3 µM,,IC50,0.05 ± 0.01 µM
cucurbitacin B,"uveal melanoma lines MP41, MP38, MP46",cell viability,,average over lines,,IC50,0.0379 µM
CLDPVDTPNPTR,RAW264.7,Western blot,peptide,"concentration not given, 6 h pretreatment, added: LPS 30 min",,p-ERK/ERK ratio,0.34 ± 0.01
Tunicamycin,HEK293,western blot,,"10 µg/mL, 6 h, unit not given",relative to: mock,BiP protein level,1.81 and 1.95 and 1.47 and 1.49 and 1.5 and 2.35
pladienolide B,22Rv1,ATAC-seq,,"concentration not given, 3 h, log2FC below -1 or above 1",,changed accessible sites,< 200 sites
KISEYRHYV,Ca-Ski (HLA-A2+ HPV+),111In release,peptide,"concentration not given, 16 h, E:T 25:1 IVS 5, added: peptide-generated T-cell line",,specific lysis,24.2%
C.I. Basic Violet 14,HepaRG,"reactive oxygen species, ROS-Glo luminescence",,16 h,,IC50,4.96 ± 3.24 µM
CRQLRKGKFFSEGGSGGTSFEQFWAWLWP,786-O cells,"cell viability, CCK-8",peptide,48 h,,IC50,0.305 µM
abamectin,HepG2,"RNA-seq, measured: genes, LRH-1 target, endogenous",,"10 µM, 24 h, log2 fold change cut-off ±1.0",,number of regulated genes,1600 genes
SFLLRNPNDKYEPF,BPAEC,fura-2,peptide,"100 µM, 50% decay from peak",,peak decay time,0.73 min
